Results from different studies.
Each numbered part is a random draw from the data of one study; scales do not carry over between parts. Values joined by “and” are separate records of one study, mostly repeats; a detail may differ.
Sequence of UniProt Q13464 (whole entry, looked up): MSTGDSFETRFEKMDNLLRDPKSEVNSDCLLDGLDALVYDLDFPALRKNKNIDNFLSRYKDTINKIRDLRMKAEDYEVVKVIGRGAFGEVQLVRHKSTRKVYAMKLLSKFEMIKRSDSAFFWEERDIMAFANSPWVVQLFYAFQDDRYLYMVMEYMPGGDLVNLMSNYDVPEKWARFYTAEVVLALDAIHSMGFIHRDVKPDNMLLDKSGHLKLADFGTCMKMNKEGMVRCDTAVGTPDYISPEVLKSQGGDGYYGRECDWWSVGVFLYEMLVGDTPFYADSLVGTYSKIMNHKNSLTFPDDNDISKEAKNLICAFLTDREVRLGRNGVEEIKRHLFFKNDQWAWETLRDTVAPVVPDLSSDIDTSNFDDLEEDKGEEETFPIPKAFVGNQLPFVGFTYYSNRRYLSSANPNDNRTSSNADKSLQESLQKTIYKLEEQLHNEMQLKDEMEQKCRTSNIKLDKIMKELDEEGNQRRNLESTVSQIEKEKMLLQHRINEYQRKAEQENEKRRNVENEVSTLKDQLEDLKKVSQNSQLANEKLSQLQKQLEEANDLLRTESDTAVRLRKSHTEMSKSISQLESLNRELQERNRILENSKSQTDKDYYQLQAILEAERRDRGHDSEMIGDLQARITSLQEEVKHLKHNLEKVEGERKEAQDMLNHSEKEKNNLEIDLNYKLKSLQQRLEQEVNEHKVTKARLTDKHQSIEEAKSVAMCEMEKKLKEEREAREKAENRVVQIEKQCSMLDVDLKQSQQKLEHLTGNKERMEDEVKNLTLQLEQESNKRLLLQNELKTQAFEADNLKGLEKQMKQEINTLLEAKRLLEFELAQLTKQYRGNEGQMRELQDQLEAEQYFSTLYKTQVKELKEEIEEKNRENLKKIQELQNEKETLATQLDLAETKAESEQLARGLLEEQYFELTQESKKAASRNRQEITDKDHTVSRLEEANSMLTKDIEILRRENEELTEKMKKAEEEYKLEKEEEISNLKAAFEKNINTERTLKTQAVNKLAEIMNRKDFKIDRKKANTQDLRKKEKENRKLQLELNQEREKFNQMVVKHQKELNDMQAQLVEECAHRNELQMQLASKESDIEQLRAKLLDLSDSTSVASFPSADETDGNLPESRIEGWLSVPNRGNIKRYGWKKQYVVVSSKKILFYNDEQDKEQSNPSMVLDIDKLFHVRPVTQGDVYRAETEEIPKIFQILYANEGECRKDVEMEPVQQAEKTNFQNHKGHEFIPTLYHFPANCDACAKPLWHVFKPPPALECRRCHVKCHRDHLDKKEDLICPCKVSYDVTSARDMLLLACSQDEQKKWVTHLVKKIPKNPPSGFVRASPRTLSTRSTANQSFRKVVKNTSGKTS
Sequence of UniProt P10721 (whole entry, unmodified, looked up): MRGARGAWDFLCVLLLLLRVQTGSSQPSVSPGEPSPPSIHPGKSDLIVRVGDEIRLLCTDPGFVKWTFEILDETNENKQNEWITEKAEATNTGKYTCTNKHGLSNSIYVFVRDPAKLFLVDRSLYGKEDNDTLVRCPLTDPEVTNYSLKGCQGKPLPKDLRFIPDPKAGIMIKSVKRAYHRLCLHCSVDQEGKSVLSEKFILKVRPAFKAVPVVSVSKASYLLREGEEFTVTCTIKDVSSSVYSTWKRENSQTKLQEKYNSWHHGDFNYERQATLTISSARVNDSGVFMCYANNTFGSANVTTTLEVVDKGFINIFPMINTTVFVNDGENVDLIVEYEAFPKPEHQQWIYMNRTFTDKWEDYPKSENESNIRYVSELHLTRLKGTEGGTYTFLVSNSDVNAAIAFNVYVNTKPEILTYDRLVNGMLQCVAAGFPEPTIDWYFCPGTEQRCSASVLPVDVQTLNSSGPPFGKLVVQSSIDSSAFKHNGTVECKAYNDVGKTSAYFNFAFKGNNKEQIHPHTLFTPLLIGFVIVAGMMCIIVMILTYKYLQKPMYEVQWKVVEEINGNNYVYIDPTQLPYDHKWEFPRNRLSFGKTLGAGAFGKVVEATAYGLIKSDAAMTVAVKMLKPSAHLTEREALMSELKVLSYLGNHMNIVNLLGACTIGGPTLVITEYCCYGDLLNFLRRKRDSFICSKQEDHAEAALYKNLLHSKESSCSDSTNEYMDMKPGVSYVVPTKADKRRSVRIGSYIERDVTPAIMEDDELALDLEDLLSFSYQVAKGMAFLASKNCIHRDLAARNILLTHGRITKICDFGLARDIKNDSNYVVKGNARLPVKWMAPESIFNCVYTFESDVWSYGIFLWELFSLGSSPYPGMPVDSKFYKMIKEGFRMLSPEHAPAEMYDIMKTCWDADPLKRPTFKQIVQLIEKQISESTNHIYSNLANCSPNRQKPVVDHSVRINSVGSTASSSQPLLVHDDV
Sequence of UniProt Q96BR1 (whole entry, looked up): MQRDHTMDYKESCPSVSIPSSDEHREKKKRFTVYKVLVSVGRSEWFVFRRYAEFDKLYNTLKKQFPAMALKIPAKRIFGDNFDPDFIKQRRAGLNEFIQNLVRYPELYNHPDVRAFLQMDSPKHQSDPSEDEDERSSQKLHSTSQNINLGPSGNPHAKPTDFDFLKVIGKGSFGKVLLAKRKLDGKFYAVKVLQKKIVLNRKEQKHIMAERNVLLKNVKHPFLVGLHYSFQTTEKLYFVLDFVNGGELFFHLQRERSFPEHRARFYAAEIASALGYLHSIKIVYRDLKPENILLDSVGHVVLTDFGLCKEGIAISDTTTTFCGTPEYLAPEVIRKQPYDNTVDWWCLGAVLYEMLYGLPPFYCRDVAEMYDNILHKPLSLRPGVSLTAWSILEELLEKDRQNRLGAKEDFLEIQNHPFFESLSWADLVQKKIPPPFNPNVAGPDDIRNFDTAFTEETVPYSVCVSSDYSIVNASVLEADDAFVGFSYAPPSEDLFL
Sequence of UniProt P42336 (whole entry, unmodified, looked up): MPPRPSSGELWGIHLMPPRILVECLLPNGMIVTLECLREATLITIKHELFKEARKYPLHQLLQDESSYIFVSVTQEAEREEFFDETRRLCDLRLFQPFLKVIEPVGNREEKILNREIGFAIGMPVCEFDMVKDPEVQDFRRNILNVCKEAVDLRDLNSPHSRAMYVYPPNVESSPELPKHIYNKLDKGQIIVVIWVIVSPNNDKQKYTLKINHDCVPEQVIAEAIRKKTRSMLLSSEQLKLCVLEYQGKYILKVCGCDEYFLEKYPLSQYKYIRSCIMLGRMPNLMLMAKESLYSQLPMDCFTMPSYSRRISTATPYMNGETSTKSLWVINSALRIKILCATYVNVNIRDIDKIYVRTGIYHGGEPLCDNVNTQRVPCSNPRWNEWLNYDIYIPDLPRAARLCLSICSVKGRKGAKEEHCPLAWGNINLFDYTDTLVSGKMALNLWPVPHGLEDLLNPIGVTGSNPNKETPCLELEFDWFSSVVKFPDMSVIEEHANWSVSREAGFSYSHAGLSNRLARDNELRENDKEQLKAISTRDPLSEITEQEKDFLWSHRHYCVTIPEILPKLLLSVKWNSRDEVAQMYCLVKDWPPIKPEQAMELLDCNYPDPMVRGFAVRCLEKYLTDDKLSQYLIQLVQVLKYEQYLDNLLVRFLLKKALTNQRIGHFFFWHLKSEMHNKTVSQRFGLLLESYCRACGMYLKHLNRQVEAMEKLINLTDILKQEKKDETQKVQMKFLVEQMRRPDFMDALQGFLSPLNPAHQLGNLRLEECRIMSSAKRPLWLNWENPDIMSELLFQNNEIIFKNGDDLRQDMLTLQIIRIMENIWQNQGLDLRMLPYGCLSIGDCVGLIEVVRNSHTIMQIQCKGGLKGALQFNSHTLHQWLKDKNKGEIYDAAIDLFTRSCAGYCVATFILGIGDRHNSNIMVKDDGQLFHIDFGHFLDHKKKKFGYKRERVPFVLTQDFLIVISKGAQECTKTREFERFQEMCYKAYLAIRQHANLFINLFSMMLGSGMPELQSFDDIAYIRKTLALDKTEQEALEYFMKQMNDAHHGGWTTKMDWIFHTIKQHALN

Block 1
Cell line: mouse MPNST tumor cells
Method: high-content nuclear imaging
Refers to: cell number
Concentration: 10 µM
Time: 12 h
Notes: mean of 2 replicates
Reference: plate mean
Direction: higher = more cells
SMILES	nuclei count
CC1=C(/C=C/C(C)=C/C=C/C(C)=C/C(=O)O)C(C)(C)CCC1	-2.33 z-score
N=C(N)NCCC[C@@H](NC(=O)C(c1ccccc1)c1ccccc1)C(=O)NCc1ccc(CNC(N)=O)cc1	2.39 z-score
N=C(N)NC(=O)c1nc(Cl)c(N)nc1N	1.79 z-score and 2.56 z-score
Nc1cccc(-c2cc3c(Oc4cccc(O)c4)ncnc3[nH]2)c1	-3.28 z-score
O=c1cc(NCCCN[C@@H]2CCOc3c(Br)cc(Br)cc32)[nH]c2ccsc12	2.46 z-score
Nc1ncnc2c1ncn2C1CCCO1 (stereo not shown)	0.523 z-score
Clc1cccc(Cl)c1/C(=C/n1cncn1)OC1CCCCCC1	-0.625 z-score
CC1(C)SCN(S(=O)(=O)c2ccccc2)C1C(=O)NC(CNC(=O)NCc1ccccc1)C(=O)O (stereo not shown)	0.0713 z-score
COc1cccc(OC)c1-c1ccc(C[C@H](NC(=O)c2c(Cl)cccc2Cl)C(=O)O)cc1	-0.578 z-score
CCCC(CCC)C(=O)O	0.765 z-score and 0.737 z-score and 0.404 z-score
CCN(CC)S(=O)(=O)Nc1cccc(-c2ccc3c(NC(=O)C4CC4)n[nH]c3c2)c1	-3.46 z-score
CCCCN(CCCC)CCC(O)c1cc2c(Cl)cc(Cl)cc2c2cc(C(F)(F)F)ccc12 (stereo not shown)	0.414 z-score and -0.856 z-score
CN(C)CC[C@@H](c1ccc(Cl)cc1)c1ccccn1	2.75 z-score
COc1ccccc1C(=O)Nc1cc2c(cc1N1CCNC[C@H]1C)n(C)c(=O)n2C	4.11 z-score and 3.3 z-score
CCN(CC)CCOc1ccc(C(=C(Cl)c2ccccc2)c2ccccc2)cc1	-5.14 z-score
CC(=O)c1cc2c(o1)C(=O)c1ccccc1C2=O	-4.99 z-score
CC(C)(C)C(=O)OCOC(=O)[C@@H]1N2C(=O)[C@@H](/N=C/N3CCCCCC3)[C@H]2SC1(C)C	0.233 z-score

Block 2
SMILES: CC(=O)C1=C(C)N(c2cccc(C(F)(F)F)c2)C(=O)N[C@@H]1c1ccc(C#N)nc1
Method: competition with immobilised ligand
Concentration: 1 µM
target	read-out	remaining binding [%]
1-phosphatidylinositol 3-phosphate 5-kinase (PIKFYVE, Homo sapiens, UniProt Q9Y2I7)	cell-free assay	90
Mast/stem cell growth factor receptor Kit (KIT, Homo sapiens, UniProt P10721, V559D/V654A)	cell-free assay	100
Tyrosine-protein kinase Srms (SRMS, Homo sapiens, UniProt Q9H3Y6)	cell-free assay	97.9
Tyrosine-protein kinase ABL1, non-phosphorylated (ABL1, Homo sapiens, UniProt P00519, H396P)	cell-free assay	87.1
Dual specificity mitogen-activated protein kinase kinase 2 (MAP2K2, Homo sapiens, UniProt P36507)	cell-free assay	84.2
Epidermal growth factor receptor (EGFR, Homo sapiens, UniProt P00533, del752-759)	cell-free assay	92.9
Epidermal growth factor receptor (EGFR, Homo sapiens, UniProt P00533, L861Q)	cell-free assay	100
Serine/threonine-protein kinase Nek10 (NEK10, Homo sapiens, UniProt Q6ZWH5)	cell-free assay	96.4
Fibroblast growth factor receptor 2 (FGFR2, Homo sapiens, UniProt P21802)	cell-free assay	100
Mitogen-activated protein kinase kinase kinase 14 (MAP3K14, Homo sapiens, UniProt Q99558)	cell-free assay	100
Serine/threonine-protein kinase PAK 2 (PAK2, Homo sapiens, UniProt Q13177)	cell-free assay	98.2
Serine/threonine-protein kinase Sgk3 (SGK3, Homo sapiens, UniProt Q96BR1)	cell-free assay	100
Homeodomain-interacting protein kinase 2 (HIPK2, Homo sapiens, UniProt Q9H2X6)	cell-free assay	94.3
Tyrosine-protein kinase ABL1, phosphorylated (ABL1, Homo sapiens, UniProt P00519, Q252H)	cell-free assay	94.3
Cyclin-dependent kinase-like 1 (CDKL1, Homo sapiens, UniProt Q00532)	cell-free assay	80.9
Tyrosine-protein kinase ABL1, non-phosphorylated (ABL1, Homo sapiens, UniProt P00519)	cell-free assay	96.5
Activated CDC42 kinase 1 (TNK2, Homo sapiens, UniProt Q07912)	cell-free assay	78.6
Serine/threonine-protein kinase ICK (CILK1, Homo sapiens, UniProt Q9UPZ9)	binding	100
Casein kinase I isoform alpha (CSNK1A1, Homo sapiens, UniProt P48729)	cell-free assay	91.5
Serine/threonine-protein kinase DCLK3 (DCLK3, Homo sapiens, UniProt Q9C098)	cell-free assay	53.9
Rho-associated protein kinase 1 (ROCK1, Homo sapiens, UniProt Q13464)	cell-free assay	100
TRAF2 and NCK-interacting protein kinase (TNIK, Homo sapiens, UniProt Q9UKE5)	cell-free assay	90.8
Phosphatidylinositol 4,5-bisphosphate 3-kinase catalytic subunit alpha isoform (PIK3CA, Homo sapiens, UniProt P42336, H1047Y)	cell-free assay	87.6
Ribosomal protein S6 kinase alpha-2, C-terminal kinase domain (RPS6KA2, Homo sapiens, UniProt Q15349)	cell-free assay	100
Phosphatidylinositol 4,5-bisphosphate 3-kinase catalytic subunit delta isoform (PIK3CD, Homo sapiens, UniProt O00329)	cell-free assay	89.8

Block 3
SMILES: CN1CCC[C@H]1COc1nc2c(c(N3CCN(S(C)(=O)=O)[C@@H](CC#N)C3)n1)CCN(c1cccc3cccc(Cl)c13)C2
Read-out: binding
Method: NanoBRET
Cell line: HEK293 (live)
Direction: lower = stronger binding
HRAS: GTPase HRas (HRAS, Homo sapiens, UniProt P01112)
KRAS G12D: GTPase KRas (KRAS, Homo sapiens, UniProt P01116, G12D)
target	concentration	target engagement
HRAS	0.5686 µM	80.7% and 102% and 80%
KRAS G12D	0.5686 µM	80.5% and 69.8% and 84.7%
KRAS G12D	1.523 µM	43.6% and 39.2% and 30.6%
HRAS	1.046 µM	90.4% and 107% and 83.9%
KRAS G12D	1.046 µM	75.4% and 54.8% and 70.6%
HRAS	1.523 µM	81.7% and 83.1% and 111%
KRAS G12D	0.09151 µM	90.2% and 87.6% and 78.6%
HRAS	0.09151 µM	98.5% and 85% and 80.9%

Block 4
Target: Serine/threonine-protein kinase D1 (PRKD1, Homo sapiens, UniProt Q15139)
Sequence of UniProt Q15139 (whole entry, looked up): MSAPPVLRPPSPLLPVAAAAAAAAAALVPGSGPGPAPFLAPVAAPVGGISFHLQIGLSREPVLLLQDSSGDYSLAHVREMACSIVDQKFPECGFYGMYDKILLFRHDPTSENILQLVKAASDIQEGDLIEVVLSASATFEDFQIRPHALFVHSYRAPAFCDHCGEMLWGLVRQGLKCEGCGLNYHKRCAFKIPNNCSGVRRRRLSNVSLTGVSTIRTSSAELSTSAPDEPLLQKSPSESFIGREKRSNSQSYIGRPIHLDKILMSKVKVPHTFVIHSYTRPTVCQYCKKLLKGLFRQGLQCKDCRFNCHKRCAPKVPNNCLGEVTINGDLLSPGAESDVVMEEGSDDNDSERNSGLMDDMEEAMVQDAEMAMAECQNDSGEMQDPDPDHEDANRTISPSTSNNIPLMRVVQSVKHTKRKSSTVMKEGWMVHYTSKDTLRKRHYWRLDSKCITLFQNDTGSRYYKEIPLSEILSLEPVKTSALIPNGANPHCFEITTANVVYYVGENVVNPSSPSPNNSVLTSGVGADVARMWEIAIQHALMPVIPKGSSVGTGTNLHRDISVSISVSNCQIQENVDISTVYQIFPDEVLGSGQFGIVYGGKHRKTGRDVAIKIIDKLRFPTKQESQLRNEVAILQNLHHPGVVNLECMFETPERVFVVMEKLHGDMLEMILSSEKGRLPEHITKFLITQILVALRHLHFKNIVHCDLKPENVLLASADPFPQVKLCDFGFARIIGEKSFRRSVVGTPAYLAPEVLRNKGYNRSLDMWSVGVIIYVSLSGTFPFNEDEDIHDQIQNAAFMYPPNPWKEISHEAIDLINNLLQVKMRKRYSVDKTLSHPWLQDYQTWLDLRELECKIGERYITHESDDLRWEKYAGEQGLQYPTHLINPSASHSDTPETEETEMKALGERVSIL
Read-out: enzyme activity
Mode: inhibitor
Concentration: 0.5 µM
Reference: control
Compound	remaining activity [%]
Ic1cccc(CSc2nnc(-c3ccncc3)o2)c1	97.6
CCN(CC)C(=O)c1ccc(Nc2nc(OCC3CCCCC3)c3[nH]cnc3n2)cc1	62.6
Cc1cn(-c2cc(NC(=O)c3ccc(C)c(Nc4nccc(-c5cccnc5)n4)c3)cc(C(F)(F)F)c2)cn1	99.7
COc1cc2ncnc(Nc3cccc(Cl)c3)c2cc1OC	92.3
CN([C@@H](Cc1ccc(OS(=O)(=O)c2cccc3cnccc23)cc1)C(=O)N1CCN(c2ccccc2)CC1)S(=O)(=O)c1cccc2cnccc12	101
Cn1nc2c3c(cccc31)C(=O)c1ccccc1-2	69.3
N#Cc1c(NC(=O)c2cccc3ccccc23)sc2c1CCCC2	101
COc1cc2c(cc1OC)-c1[nH]nc(Nc3cccc(F)c3)c1C2	93.6
O=C1C(Cl)=C(N2C(=O)CCC2=O)C(=O)c2ccccc21	104
COc1cc2ncnc(Nc3ccc(O)c(Br)c3)c2cc1OC	70.1
O=C(Nc1cccc(Nc2nccc(Nc3cccc(C(F)(F)F)c3)n2)c1)C1CC1	94.1
O=c1cc(-c2cccc3c2Sc2ccccc2S3)oc(N2CCOCC2)c1	90.3
Cc1cc2ncc(-c3ccccc3)nc2cc1C	100
Nc1cccc(-c2cc3c(Oc4cccc(O)c4)ncnc3[nH]2)c1	94.4
O=C1c2ccccc2-c2n[nH]c3cccc1c23	28.6
Cc1nc2cc3nc(-c4cccs4)cnc3cc2n1C	97.7
O=C(NC(NC(=S)Nc1ccc(F)c([N+](=O)[O-])c1)C(Cl)(Cl)Cl)C(c1ccccc1)c1ccccc1 (stereo not shown)	96.9
c1ccc(-c2[nH]ncc2-c2ccnc3ccccc23)nc1	63
N#C/C(=C\c1ccc(O)c(O)c1)C(=O)NCc1ccccc1	92.5
CCN(CC)CCNC(=O)c1c(C)[nH]c(/C=C2\C(=O)Nc3ccc(Cl)cc32)c1C	11.3
c1ccc(-c2cnc(Nc3ccc(OCCN4CCCC4)cc3)s2)cc1	78.4
CCOc1nc(NC(=O)Cc2cc(OC)ccc2OC)cc(N)c1C#N	88.4
CN(C)C[C@H]1CCn2c(c(C3=C(c4cn(C)c5ccccc45)C(=O)NC3=O)c3ccccc32)C1	101

Excerpt of the above (block 2):
target	read-out	remaining binding [%]
Tyrosine-protein kinase ABL1, non-phosphorylated (ABL1, Homo sapiens, UniProt P00519, H396P)	cell-free assay	87.1
Dual specificity mitogen-activated protein kinase kinase 2 (MAP2K2, Homo sapiens, UniProt P36507)	cell-free assay	84.2
Epidermal growth factor receptor (EGFR, Homo sapiens, UniProt P00533, del752-759)	cell-free assay	92.9
Epidermal growth factor receptor (EGFR, Homo sapiens, UniProt P00533, L861Q)	cell-free assay	100
Serine/threonine-protein kinase Nek10 (NEK10, Homo sapiens, UniProt Q6ZWH5)	cell-free assay	96.4
Fibroblast growth factor receptor 2 (FGFR2, Homo sapiens, UniProt P21802)	cell-free assay	100
